Assay results gathered from unrelated publications.
Protocols differ between the studies behind these lines. ± gives the spread as reported.
RIPK2: Receptor-interacting serine/threonine-protein kinase 2 (RIPK2, Homo sapiens, UniProt O43353)
Chain of UniProt O43353 (whole entry, looked up): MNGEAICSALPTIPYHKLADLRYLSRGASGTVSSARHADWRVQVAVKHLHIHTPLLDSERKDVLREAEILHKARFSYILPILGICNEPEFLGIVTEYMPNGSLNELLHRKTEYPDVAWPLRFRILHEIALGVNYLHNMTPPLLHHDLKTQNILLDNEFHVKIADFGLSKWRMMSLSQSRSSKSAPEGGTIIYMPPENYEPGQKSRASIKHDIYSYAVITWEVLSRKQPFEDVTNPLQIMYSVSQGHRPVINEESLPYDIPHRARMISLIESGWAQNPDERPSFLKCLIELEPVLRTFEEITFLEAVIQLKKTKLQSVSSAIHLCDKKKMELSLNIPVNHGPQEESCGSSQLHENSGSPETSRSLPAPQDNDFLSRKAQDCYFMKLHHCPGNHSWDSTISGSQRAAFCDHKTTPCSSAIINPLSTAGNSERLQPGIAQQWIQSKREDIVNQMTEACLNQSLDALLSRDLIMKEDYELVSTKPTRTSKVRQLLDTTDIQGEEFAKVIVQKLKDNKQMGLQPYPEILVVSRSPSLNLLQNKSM
UGT1A4: UDP-glucuronosyltransferase 1A4 (UGT1A4, Homo sapiens, UniProt P22310)
Chain of UniProt P22310 (whole entry, looked up): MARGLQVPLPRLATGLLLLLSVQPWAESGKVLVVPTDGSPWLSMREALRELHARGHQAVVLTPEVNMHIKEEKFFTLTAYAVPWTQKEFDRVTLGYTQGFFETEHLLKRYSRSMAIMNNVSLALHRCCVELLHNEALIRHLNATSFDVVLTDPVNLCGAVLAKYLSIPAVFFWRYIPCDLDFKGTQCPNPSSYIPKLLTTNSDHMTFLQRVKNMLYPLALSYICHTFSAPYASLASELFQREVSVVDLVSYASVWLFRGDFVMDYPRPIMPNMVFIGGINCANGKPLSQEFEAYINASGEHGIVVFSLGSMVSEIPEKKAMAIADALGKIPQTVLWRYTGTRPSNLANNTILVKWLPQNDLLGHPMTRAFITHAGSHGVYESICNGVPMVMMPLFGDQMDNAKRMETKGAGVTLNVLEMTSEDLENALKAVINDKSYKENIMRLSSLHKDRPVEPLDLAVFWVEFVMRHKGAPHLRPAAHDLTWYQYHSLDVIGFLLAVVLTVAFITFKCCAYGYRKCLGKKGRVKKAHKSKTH
MAPK3: Mitogen-activated protein kinase 3 (MAPK3, Homo sapiens, UniProt P27361)
Chain of UniProt P27361 (whole entry, looked up): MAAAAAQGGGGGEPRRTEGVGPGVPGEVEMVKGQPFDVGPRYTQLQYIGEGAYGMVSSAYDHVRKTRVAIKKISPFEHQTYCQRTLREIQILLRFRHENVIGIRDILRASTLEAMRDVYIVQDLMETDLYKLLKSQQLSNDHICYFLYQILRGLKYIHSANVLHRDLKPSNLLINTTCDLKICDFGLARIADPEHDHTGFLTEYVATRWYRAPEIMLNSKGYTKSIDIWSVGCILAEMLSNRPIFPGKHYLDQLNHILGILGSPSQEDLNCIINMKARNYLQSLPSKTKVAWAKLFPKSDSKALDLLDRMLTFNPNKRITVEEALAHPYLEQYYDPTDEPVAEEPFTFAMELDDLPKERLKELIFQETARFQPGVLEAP
EGFR L861Q: Epidermal growth factor receptor (EGFR, Homo sapiens, UniProt P00533, L861Q)
Chain of UniProt Q92626 (whole entry, looked up): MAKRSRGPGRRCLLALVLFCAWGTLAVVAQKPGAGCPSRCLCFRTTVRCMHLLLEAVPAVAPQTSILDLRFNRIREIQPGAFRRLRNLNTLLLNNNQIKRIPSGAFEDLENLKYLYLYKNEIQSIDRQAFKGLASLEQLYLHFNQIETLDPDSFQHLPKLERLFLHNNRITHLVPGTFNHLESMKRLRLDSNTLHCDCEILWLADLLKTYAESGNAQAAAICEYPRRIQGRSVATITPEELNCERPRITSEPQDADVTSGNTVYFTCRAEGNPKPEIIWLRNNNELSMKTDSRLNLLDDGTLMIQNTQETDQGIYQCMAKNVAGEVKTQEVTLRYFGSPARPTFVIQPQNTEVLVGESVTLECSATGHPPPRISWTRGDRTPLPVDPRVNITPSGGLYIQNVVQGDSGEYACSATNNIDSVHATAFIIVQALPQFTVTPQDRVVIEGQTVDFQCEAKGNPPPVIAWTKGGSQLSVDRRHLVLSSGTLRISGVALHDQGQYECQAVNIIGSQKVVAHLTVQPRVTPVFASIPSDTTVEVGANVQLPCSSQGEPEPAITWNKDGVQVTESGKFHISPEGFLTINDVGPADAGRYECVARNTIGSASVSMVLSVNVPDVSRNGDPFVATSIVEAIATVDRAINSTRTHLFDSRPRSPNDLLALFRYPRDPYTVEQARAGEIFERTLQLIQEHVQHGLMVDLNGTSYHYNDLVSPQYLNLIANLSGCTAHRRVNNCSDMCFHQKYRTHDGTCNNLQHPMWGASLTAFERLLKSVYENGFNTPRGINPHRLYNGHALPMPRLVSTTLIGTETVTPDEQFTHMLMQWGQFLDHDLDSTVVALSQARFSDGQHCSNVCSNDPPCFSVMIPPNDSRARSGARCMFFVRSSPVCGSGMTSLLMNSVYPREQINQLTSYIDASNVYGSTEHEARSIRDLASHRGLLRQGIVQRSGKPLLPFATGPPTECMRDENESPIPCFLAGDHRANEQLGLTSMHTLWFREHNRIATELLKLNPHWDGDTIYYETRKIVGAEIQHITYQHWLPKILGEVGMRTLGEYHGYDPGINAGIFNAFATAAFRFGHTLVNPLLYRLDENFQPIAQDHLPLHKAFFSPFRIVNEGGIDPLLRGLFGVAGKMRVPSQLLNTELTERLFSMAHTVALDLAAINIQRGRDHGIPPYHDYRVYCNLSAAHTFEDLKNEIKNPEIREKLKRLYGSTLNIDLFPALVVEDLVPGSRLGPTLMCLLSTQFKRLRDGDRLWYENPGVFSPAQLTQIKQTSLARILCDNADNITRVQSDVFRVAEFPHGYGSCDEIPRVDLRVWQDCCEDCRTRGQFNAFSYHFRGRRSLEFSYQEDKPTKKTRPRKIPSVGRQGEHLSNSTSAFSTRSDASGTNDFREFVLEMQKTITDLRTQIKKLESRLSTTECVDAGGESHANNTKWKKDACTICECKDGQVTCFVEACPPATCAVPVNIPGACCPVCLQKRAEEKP
Chain of UniProt Q13555 (whole entry, looked up): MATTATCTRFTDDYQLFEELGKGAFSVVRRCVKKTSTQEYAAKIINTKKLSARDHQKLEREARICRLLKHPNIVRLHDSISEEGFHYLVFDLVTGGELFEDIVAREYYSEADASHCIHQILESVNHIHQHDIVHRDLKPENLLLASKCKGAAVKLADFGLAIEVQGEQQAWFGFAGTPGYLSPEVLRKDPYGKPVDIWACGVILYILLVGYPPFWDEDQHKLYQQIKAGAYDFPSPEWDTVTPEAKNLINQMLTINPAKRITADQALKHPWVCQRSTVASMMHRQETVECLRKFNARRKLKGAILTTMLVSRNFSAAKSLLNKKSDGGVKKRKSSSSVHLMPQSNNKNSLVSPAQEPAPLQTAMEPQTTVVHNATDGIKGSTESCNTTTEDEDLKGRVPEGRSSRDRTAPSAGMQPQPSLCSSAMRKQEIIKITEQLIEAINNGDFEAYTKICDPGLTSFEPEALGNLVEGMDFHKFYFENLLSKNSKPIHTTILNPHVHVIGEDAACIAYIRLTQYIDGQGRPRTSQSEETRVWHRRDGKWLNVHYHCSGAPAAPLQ
Chain of UniProt Q9P286 (whole entry, looked up): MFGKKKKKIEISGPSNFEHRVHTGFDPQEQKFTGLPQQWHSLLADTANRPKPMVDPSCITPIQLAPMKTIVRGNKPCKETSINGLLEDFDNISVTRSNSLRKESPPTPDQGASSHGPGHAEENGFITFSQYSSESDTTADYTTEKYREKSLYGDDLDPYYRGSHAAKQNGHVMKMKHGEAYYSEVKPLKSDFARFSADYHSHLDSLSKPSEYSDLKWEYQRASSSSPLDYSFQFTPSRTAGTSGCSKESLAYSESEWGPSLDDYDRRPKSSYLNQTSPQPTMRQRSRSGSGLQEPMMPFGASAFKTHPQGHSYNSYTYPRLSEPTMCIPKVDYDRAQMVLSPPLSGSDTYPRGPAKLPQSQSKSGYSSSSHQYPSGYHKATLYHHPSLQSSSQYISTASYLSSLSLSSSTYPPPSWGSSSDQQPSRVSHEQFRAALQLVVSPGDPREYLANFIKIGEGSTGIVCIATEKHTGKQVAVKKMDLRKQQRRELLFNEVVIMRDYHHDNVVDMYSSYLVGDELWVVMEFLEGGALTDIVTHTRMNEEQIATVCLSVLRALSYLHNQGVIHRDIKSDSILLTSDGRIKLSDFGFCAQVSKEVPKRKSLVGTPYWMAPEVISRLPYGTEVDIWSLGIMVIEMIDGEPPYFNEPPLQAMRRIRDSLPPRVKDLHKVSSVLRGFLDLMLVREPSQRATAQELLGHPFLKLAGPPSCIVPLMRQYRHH
Chain of UniProt P05164 (whole entry, looked up): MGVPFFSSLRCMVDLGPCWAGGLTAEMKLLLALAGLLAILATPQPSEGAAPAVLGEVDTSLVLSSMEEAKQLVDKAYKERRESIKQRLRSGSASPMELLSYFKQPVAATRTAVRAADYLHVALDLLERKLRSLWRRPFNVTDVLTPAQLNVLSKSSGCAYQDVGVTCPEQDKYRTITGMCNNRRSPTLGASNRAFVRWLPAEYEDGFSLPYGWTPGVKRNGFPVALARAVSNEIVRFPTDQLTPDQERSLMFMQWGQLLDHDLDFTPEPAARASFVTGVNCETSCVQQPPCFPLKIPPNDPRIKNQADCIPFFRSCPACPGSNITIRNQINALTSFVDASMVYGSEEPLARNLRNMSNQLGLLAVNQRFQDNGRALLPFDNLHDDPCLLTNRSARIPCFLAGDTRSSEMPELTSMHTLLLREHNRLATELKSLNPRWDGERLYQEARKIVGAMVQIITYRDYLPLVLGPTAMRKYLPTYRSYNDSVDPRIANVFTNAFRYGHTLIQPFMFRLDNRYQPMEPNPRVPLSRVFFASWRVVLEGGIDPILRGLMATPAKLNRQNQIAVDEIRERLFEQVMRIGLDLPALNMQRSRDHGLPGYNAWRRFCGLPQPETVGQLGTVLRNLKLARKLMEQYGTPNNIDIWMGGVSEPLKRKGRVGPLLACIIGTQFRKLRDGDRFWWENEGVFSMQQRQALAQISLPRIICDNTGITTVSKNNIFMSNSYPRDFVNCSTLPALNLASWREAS

SMILES	target	assay	system	conditions	scale	remaining activity
CNc1ncc2c(/C=C/C(=O)N3CCC(OC)CC3)nn(Cc3cccc(C(F)(F)F)c3)c2n1	GRK3 (Homo sapiens, UniProt P35626)	kinase activity, inhibitor		1 µM	baseline: untreated control	99%
O=C1NC(=O)/C(=C/c2ccc(-c3ccc(F)cc3O)o2)S1	RIPK2	enzyme activity		10 µM		19%
NC/C(=C\F)COc1cccc(Cn2c(=S)[nH]c(=O)c3[nH]cnc32)c1	Peroxidasin homolog (PXDN, Homo sapiens, UniProt Q92626)	Amplex UltraRed		20 µM, mean of replicates	baseline: control	23.1%
CNCC(=O)O	SLC6A9 (Homo sapiens, UniProt P48067, G373S)	glycine uptake, inhibitor		5000 µM, together with: [3H]glycine	baseline: no inhibitor	21.7%
Cc1cc(NC(=O)c2cccc(NC(=O)/C=C/CN(C)C)c2)ccc1Nc1nccc(-c2cccnc2)n1	Mitogen-activated protein kinase 8, phosphorylated (MAPK8, Homo sapiens, UniProt P45983)	enzyme activity after dialysis, inhibitor		10 µM, 4 days, unit not given	baseline: no inhibitor	0.0679
COc1cc(F)ccc1-c1ncnc(Nc2cccc(C[S@](C)(=N)=O)c2)n1	RIPK2	kinase activity		10 µM, together with: 10 µM ATP		87%
Cc1cc(Nc2cc(N3CCN(C)CC3)nc(Sc3ccc(NC(=O)C4CC4)cc3)n2)[nH]n1	CAMK2G (Homo sapiens, UniProt Q13555)	kinase activity, KinaseProfiler		0.03 µM, species human	baseline: control	109%
O=c1cc(-c2ccc(O)c(-c3c(O)cc(O)c4c(=O)cc(-c5ccc(O)cc5)oc34)c2)oc2cc(O)cc(O)c12	UGT1A4	glucuronidation, inhibitor	human liver microsomes	10 µM, together with: probe substrate 50 µM	baseline: no inhibitor	~37%
COc1cc(N2CCN(C)CC2)ccc1Nc1nc(N)n(C(=S)NCc2c(Cl)cccc2Cl)n1	CDK14 (Homo sapiens, UniProt O94921)	enzyme activity		10 µM	baseline: control	26%
C=CC(=O)N1CCC[C@@H](n2nc(-c3ccc(Oc4ccccc4)cc3)c3c(N)ncnc32)C1	MAPK3	kinase activity, inhibitor, HotSpot radiometric		100 nM, together with: ATP 10 µM		91.5 ± 0.9%
COc1cc(Nc2ncc3c(n2)-c2ccc(Cl)cc2C(c2c(F)cccc2OC)=NC3)ccc1C(=O)O	ROCK2	kinase activity		1 µM		102%
CN(C)CC#Cc1ccc2[nH]c3c(c2c1)-c1nc(N)ncc1CCC3	MARK4 (Homo sapiens, UniProt Q96L34)	kinase activity, inhibitor, radiometric		1 µM, together with: ATP at Km		97%
COc1ccc(F)cc1C(=O)NCc1ccc(-c2nn([C@@H](C)C(F)(F)F)c(N)c2C(N)=O)cc1	MAPK3	kinase activity, inhibitor, HotSpot radiometric		1000 nM, together with: ATP at Km		106.8 ± 0.9%
CCOc1cc(N2CCN(C)CC2)ccc1Nc1nc(N)n(C(=O)NCc2ccccc2S(=O)(=O)C(C)C)n1	EGFR L861Q	enzyme activity		10 µM	baseline: control	4.4%
COc1cc(-c2cncc3c2CN(C)Cc2cc(N4CCNCC4)ccc2-3)cc(OC)c1OC	IKBKB (Homo sapiens, UniProt O14920)	kinase activity		1 µM, human enzyme, together with: ATP 10 µM	baseline: DMSO control	104%
O=C(NC1CCC1)c1ccc2nc(-c3cccc(NS(=O)(=O)NCCN4CCCCC4)c3)cn2c1	TIE1 (Homo sapiens, UniProt P35590)	enzyme activity		10 µM		100%
C=CC(=O)N1CCC([C@@H]2CCNc3c(C(N)=O)c(-c4ccc(Oc5ccccc5)cc4)nn32)CC1	MAP2K1 (Homo sapiens, UniProt Q02750)	kinase activity, inhibitor, HotSpot radiometric		100 nM, together with: ATP 10 µM		111 ± 1.9%
CCCCCCCCCCCCCCNC(=O)/C=C/c1ccc(O)c(O)c1	MAL12 (Saccharomyces cerevisiae S288c, UniProt P53341)	enzyme activity		10 µM, together with: α-amylase present		18.5 ± 0.89%
O=C(O)c1ccc(Nc2ncc3c(n2)-c2ccc(Cl)cc2C(c2c(F)cccc2F)=NC3)cc1	PKCι(h)	kinase activity		1 µM		109%
Nc1ncc2c(n1)-c1c([nH]c3ccc(-c4ccc(F)cc4)cc13)CCC2	PAK5 (Homo sapiens, UniProt Q9P286)	kinase activity, inhibitor, radiometric		1 µM, together with: ATP at Km		79%
COc1cc(N2CCN(C)CC2)ccc1Nc1nc(N)n(C(=O)NCc2ccccc2S(=O)(=O)C(C)C)n1	EGFR L861Q	enzyme activity		10 µM	baseline: control	1.9%
CC(C)OCCn1c(=S)[nH]c(=O)c2[nH]ccc21	Myeloperoxidase (MPO, Homo sapiens, UniProt P05164)	LDL lipid peroxidation, inhibitor, cholesteryl ester hydroperoxide		0.0412 µM		105%
C=CC(=O)N1CCC[C@@H](n2nc(-c3ccc(Oc4ccccc4)cc3)c3c(N)ncnc32)C1	Glutaryl-CoA dehydrogenase, mitochondrial (Homo sapiens, UniProt Q92947)			1 µM		57.4%
FC(F)c1nc2ccccc2n1-c1nc(N2CCOCC2)nc(N2CCOCC2)n1	VEGFR	enzyme activity		10 µM		87%
C[C@H]1[C@H](OC(=O)CCC(=O)O)O[C@@H]2O[C@@]3(C)CC[C@H]4[C@H](C)CC[C@@H]1[C@@]24OO3	Non-structural polyprotein pORF1, helicase domain (Hepatitis E virus genotype 1, UniProt P33424)	ATPase activity, inhibitor, colorimetric		19.5 µM, preincubation 30 min, together with: ATP 200 µM	baseline: untreated	79.4%
COc1cc(N2CCN(C)CC2)ccc1Nc1nc(N)n(C(=O)NCc2c(Cl)cccc2Cl)n1	EGFR (Homo sapiens, UniProt P00533, del752-759)	enzyme activity		10 µM	baseline: control	18%
C[C@@H]1CC[C@@]2(OC1)O[C@H]1C[C@H]3[C@@H]4CC[C@H]5C[C@@H](O)CC[C@]5(C)[C@H]4CC(=O)[C@]3(C)[C@H]1[C@@H]2C	UGT1A4	glucuronidation, inhibitor	human liver microsomes	10 µM, together with: probe substrate 50 µM	baseline: no inhibitor	~35%
CC#CC(=O)N1CCC[C@H]1c1nc(-c2ccc(C(=O)Nc3ccccn3)cc2)c2c(N)nccn12	DDR1 (Homo sapiens, UniProt Q08345)	kinase activity, inhibitor, HotSpot radiometric		100 nM, together with: ATP 10 µM		87.05 ± 0.6%

For quick reference, copied from above:
SMILES	target	assay	system	conditions	scale	remaining activity
C=CC(=O)N1CCC[C@@H](n2nc(-c3ccc(Oc4ccccc4)cc3)c3c(N)ncnc32)C1	Glutaryl-CoA dehydrogenase, mitochondrial (Homo sapiens, UniProt Q92947)			1 µM		57.4%
CC(C)OCCn1c(=S)[nH]c(=O)c2[nH]ccc21	Myeloperoxidase (MPO, Homo sapiens, UniProt P05164)	LDL lipid peroxidation, inhibitor, cholesteryl ester hydroperoxide		0.0412 µM		105%
